Results pooled from the literature.
Lines come from different studies, so protocols differ. Numbers after ± are the reported error.
TDP1: Tyrosyl-DNA phosphodiesterase 1 (TDP1, Homo sapiens, UniProt Q9NUW8)
UniProt Q9NUW8, sequence (whole entry, looked up): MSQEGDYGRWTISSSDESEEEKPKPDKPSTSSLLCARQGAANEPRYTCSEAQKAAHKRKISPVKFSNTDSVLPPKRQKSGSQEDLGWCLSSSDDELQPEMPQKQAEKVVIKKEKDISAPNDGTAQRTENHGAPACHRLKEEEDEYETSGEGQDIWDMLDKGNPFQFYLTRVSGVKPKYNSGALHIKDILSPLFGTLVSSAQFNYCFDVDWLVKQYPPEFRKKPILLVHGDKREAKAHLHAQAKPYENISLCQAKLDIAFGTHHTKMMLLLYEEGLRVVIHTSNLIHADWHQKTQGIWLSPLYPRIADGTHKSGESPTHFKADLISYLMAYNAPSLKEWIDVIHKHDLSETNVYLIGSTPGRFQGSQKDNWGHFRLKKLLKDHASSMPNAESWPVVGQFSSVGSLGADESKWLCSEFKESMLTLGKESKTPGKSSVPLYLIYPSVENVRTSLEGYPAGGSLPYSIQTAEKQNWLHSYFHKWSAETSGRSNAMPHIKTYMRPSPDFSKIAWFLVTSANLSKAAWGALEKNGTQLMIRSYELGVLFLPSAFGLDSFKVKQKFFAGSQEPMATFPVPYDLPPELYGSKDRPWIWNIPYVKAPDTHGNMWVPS
UniProt P29376, sequence (whole entry, looked up): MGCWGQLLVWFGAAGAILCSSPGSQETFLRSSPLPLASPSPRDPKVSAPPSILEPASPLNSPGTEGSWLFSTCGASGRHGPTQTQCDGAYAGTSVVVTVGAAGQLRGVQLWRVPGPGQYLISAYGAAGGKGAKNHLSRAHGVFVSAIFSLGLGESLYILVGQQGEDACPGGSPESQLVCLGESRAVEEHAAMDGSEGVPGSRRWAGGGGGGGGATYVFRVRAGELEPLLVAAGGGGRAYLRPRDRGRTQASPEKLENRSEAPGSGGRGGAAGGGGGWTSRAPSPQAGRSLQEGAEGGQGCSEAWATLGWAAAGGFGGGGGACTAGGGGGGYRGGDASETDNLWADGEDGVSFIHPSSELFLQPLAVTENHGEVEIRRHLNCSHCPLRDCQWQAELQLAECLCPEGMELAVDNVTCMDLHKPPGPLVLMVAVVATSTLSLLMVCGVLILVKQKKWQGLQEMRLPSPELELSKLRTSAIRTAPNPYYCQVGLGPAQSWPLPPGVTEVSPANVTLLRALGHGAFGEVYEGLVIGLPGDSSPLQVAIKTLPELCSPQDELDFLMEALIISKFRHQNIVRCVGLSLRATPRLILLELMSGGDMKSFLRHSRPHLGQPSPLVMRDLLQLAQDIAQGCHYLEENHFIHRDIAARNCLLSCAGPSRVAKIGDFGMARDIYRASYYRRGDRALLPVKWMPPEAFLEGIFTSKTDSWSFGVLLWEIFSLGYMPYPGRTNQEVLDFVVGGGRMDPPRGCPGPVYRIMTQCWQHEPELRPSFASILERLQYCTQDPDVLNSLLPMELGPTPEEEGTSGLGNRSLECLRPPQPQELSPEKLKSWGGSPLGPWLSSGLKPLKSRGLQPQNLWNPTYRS

CN1CCC(N[C@H]2CCc3[nH]c4c(C(N)=O)ccc(-c5ccccc5Cl)c4c3C2)CC1
IC50 (DOHH-2; cell growth or viability): 1.51 µM

C=CC(=O)N1CCCC(n2c(=O)c3ncccc3n(Cc3ccc(Oc4ccccc4)cc3)c2=O)C1 (stereo not shown)
IC50 (DOHH-2; cell growth or viability, MTT; 72 h): 2 µM

CN(C)C(=O)c1ccnc(N2Cc3cn(Cc4ccc(C#N)cc4)nc3C2)n1
IC50 (HEK293 expressing GluA1 and GluA2; glutamate excitotoxic cell death, CellTox Green; together with: glutamate): 0.084 µM

O=C(Nc1cc(-c2ccnc3[nH]ccc23)c(Cl)cn1)[C@H]1CCC[C@@H](NC(=O)C(F)(F)F)C1
IC50 (JeKo-1 BTK knock-down, BTK inhibitor-resistant; cell viability; 72 h): 0.11 µM

O=[C]=[Mn-2]12(=[C]=O)(=[C]=O)[O]c3cc4c(cc3=[N+]1CCc1ccccc1)[O][Mn-2](=[C]=O)(=[C]=O)(=[C]=O)([N+]=4CCc1ccccc1)[n+]1ccc(cc1)C(=O)Oc1ccccc1OC(=O)c1cc[n+]2cc1
IC50 (HCT-15; cell growth, MTT; 48 h, LED light photolysis 1 h): 3.13 ± 0.41 µM

CCN(C)Cc1c(OC)cc(-c2cc(C(C)=O)n3ccccc23)cc1OC
IC50 (MV4-11; cell growth or viability, ATP luminescence): 1.77 µM

CN1CCCNC(=O)c2cccc(c2)C(=O)NCCCN(C)CCCNc2cccc3c2C(=O)c2cccc(c2C3=O)NCCC1
log2 fold change (SAS; RNA-Seq, refers to: SMC6 mRNA; 1 µM, 6 h; baseline: untreated cells): -0.735

CC(CCC(=O)OCc1cccc(CN(C(=O)OCc2ccc(B3OC(C)(C)C(C)(C)O3)cc2)[c-]2cccc2)c1)C1CCC2C3CCC4CC(O)CCC4(C)C3CCC12C.[Fe+2].c1cc[cH-]c1 (stereo not shown)
IC50 (BL2; cell growth or viability, MTT; 48 h): 31 µM

Cn1ncc(-c2ccc3c(=O)[nH]nc(CN)c3c2)c1-c1c(F)c(Cl)cc(OC2CC2)c1C#N
IC50 (DOHH-2; cell viability, inhibitor, CellTiter-Glo; 120 h, baseline-subtracted): 0.06 µM

Nc1ncc(-c2cc(-c3cnn(CC(F)(F)F)c3)ncc2F)nc1C(=O)NC1CNCC(F)C1 (stereo not shown)
remaining binding (DAPK1; KINOMEscan; 1 µM; baseline: DMSO control): 94%

Cc1ncsc1-c1ccc(C(C)NC(=O)C2CC(O)CN2C(=O)C(NC(=O)CCCCCCCCCCN2CCCC(Nc3ncc(Cl)c(Nc4ccccc4S(=O)(=O)C(C)C)n3)C2)C(C)(C)C)cc1 (stereo not shown)
log2 fold change (22Rv1; RNA-seq, refers to: PPARGC1B mRNA; concentration not given; baseline: DMSO): -1.32

CC(C)c1ccc(N(C)c2ccc3c(c2)OCC[C@H]3CNc2cnccc2C(=O)O)cc1
IC50 (KMS-11; cell growth or viability, ATP luminescence; 7 days): 0.0122 µM

O=C1CC(c2ccc(O)cc2)Oc2cc(O)cc([O][Ga+][O]c3cc(O)cc4c3C(=O)CC(c3ccc(O)cc3)O4)c21 (stereo not shown)
IC50 (LO2; cell viability, MTT): > 200 µM

C/C(=N\N=C1/NC(=O)CS1)c1c(O)c2ccccc2oc1=O
IC50 (human Skin fibroblast; cell growth or viability, MTT; 48 h): > 100 µM

NC(=O)c1ccc(-c2ccccc2Cl)c2c3c([nH]c12)CC[C@@H](N)C3
IC50 (SGC-7901; cell growth or viability): 0.0156 µM

c1ccc2c(-c3cn(-c4ccncc4)nn3)c3ccccc3c(-c3cn(-c4ccncc4)nn3)c2c1
IC50 (AGS; cell growth or viability, MTT; 24 h): > 20 µM

CN(C(=O)c1ccnc(N2Cc3cn(Cc4ccc(F)cc4)nc3C2)n1)C1CCCCC1
IC50 (HEK293 expressing GluA1 and GluA2; glutamate excitotoxic cell death, CellTox Green; together with: glutamate): 0.087 µM

CCOc1ccc(-c2nnc3n2N=C(c2cc(OC)ccc2OC)CS3)cc1
IC50 (Uncharacterized protein (Trypanosoma brucei brucei, UniProt Q386Q8); inhibitor, coupled colorimetric; Trypanosoma brucei): 317 µM

COC1CN([C@H]2CC[C@H]([C@@]3(C)Oc4c(Cl)cc(C(=O)NCc5c(SC)cc(C)[nH]c5=O)c(C)c4O3)CC2)C1
log2 fold change (RNA-seq, refers to: BAIAP2; human, whole blood; dose not given, 24 h; baseline: pretreatment baseline): 2.07

O=C(NC1CCCCC1)c1ccnc(N2Cc3cn(Cc4ccc(F)cc4)nc3C2)n1
IC50 (HEK293 expressing GluA1 and GluA2; glutamate excitotoxic cell death, CellTox Green; together with: glutamate): 0.066 µM

COc1cc(S(=O)(=O)Oc2ccc3[nH]c(C)cc3c2)cc(OC)c1OC
IC50 (SUIT-2; cell growth or viability, fluorescence; 72 h): 0.0154 µM

CCOC(=O)/C=C1\S/C(=N\N=C\c2cccc3cc4ccccc4nc23)N(c2cccc(OC)c2)C1=O
IC50 (SK-BR-3; cell growth or viability, MTT; 48 h): > 50 µM

N#Cc1cccc(N2Cc3cn(Cc4ccc(F)cc4)nc3C2)c1
IC50 (HEK293 expressing GluA1 and GluA2; glutamate excitotoxic cell death, CellTox Green; together with: glutamate): 0.035 µM

CCN(C(=O)c1cc(F)ccc1Oc1nncnc1N1CCC2(C1)CN(C(CCCN(C)CCOC)C(C)C)C2)C(C)C (stereo not shown)
IC50 (MOLM-14 (KMT2A-AF9, FLT3-ITD); mRNA level, QuantiGene multiplex, refers to: PBX3; concentration not given): > 3 µM

CCN(CC)Cc1c(OC)cc(-c2cc(C(C)=O)n3ccccc23)cc1OC
IC50 (MV4-11; cell growth or viability, ATP luminescence): 1.36 µM

COC(CC1C(C)=CCC2C1(C)CCC1C(C)(C)C(O)C(O)CC12C)C(N)C(=O)O (stereo not shown)
IC50 (THP-29; cell viability, CCK-8; 72 h): > 10 µM

C=CC(=O)Nc1cccc(Cn2ncc3cnc(Nc4cnn(CCOC)c4)nc32)c1
binding (human p38-alpha; KINOMEscan; 100 nM; baseline: control): 100%

Cc1nn(-c2cccc(N)c2)c(=O)c2cnc(Nc3ccc(N4CCNCC4)cc3)nc12
IC50 (LTK (Homo sapiens, UniProt P29376); enzyme activity, inhibitor): > 10 µM

Cn1c(C=NOCc2ccc(-c3nc4cc(-c5ccccc5)ccn4c3Nc3ccc(C(=O)O)cc3)cc2)c(Cl)c2ccccc21 (mixture of isomers)
inhibition (TDP1; enzyme activity, inhibitor; 100 µM, unpurified compound): 41.4%

CNS(=O)(=O)Nc1nccc(Cc2c(C)c3ccc(Oc4ncccc4F)cc3oc2=O)c1F
IC50 (HS852T; cell viability, CellTiter-Glo; 7 days): 0.296 µM

Cn1nc(CSc2ccccc2)c(C=NOCc2ccc3nc(-c4ccccc4)c(Nc4ccc(C(=O)O)cc4)n3c2)c1Cl
inhibition (TDP1; enzyme activity, inhibitor; 100 µM, unpurified compound): -2.3%

CN1CCN(C(=O)c2ccnc(N3Cc4cnn(Cc5ccc(F)cc5)c4C3)n2)CC1
IC50 (HEK293 expressing GluA1 and GluA2; glutamate excitotoxic cell death, CellTox Green; together with: glutamate): 0.041 µM

Cc1ccc([N+](=O)[O-])cc1S(=O)(=O)N(C)/N=C/c1cnc2ccc(Br)cn12
IC50 (HOP-92; cell growth or viability): 0.094 µM

NC(=O)c1cncc(N2Cc3cnn(Cc4ccc(F)cc4)c3C2)n1
IC50 (HEK293 expressing GluA1 and GluA2; glutamate excitotoxic cell death, CellTox Green; together with: glutamate): > 5 µM

CCOc1cncc(-c2ccc(NC(=O)C3(c4ccnc(NS(=O)(=O)C5CC5)n4)CCOCC3)nc2)n1
IC50 (CAL-27; cell proliferation, CellTiter-Glo; 72 h): 2.68 µM

CC(=O)NCCOCCOCCNC(=O)c1cc(C(=O)N2CCNCCNCCNCC2)c(O)c(C(=O)N2CCNCCNCCNCC2)c1
IC50 (2C6 normal pancreas; cell viability, MTT; 24 h): > 1000 µM

CN(C)C(=O)c1cccc(N2Cc3cn(Cc4cccc(C(F)(F)F)c4)nc3C2)c1
IC50 (HEK293 expressing GluA1 and GluA2; glutamate excitotoxic cell death, CellTox Green; together with: glutamate): 0.065 µM

CN1C(=O)CS/C1=N\N=C\c1cccc2cc3ccccc3nc12
IC50 (SK-BR-3; cell growth or viability, MTT; 48 h): > 50 µM

CN(C)c1ccnc(N2Cc3cnn(Cc4ccc(F)cc4)c3C2)n1
IC50 (HEK293 expressing GluA1 and GluA2; glutamate excitotoxic cell death, CellTox Green; together with: glutamate): 0.731 µM

CC(C)=CC1OC(C)(C)C2C=C3C(=O)C(Cl)=CC(O)C3C3C(O)C4OC4C(=O)C132 (stereo not shown)
IC50 (SGC-7901; cell growth or viability, MTS): 3.19 µM

Repeated from above:
CCN(CC)Cc1c(OC)cc(-c2cc(C(C)=O)n3ccccc23)cc1OC
IC50 (MV4-11; cell growth or viability, ATP luminescence): 1.36 µM

COC(CC1C(C)=CCC2C1(C)CCC1C(C)(C)C(O)C(O)CC12C)C(N)C(=O)O (stereo not shown)
IC50 (THP-29; cell viability, CCK-8; 72 h): > 10 µM

C=CC(=O)Nc1cccc(Cn2ncc3cnc(Nc4cnn(CCOC)c4)nc32)c1
binding (human p38-alpha; KINOMEscan; 100 nM; baseline: control): 100%
